# Results collected from several papers.
# Compare with care: the assays were run in different laboratories. ± gives the spread as reported.
SMILES,system,setting,AUC(0-t)
Cc1[nH]c(C)c(S(=O)(=O)Nc2ccc(C(F)(F)F)c(Cl)c2)c1C(=O)N1CCC(F)(F)C1,"mouse, plasma","intraperitoneal, 40 mg/kg",72700 ng·h/g
Cc1cc(N[C@H]2CCc3ccc(Cl)cc3C2)n2nc(C(C)(F)F)nc2n1,"NSG mouse, whole blood","oral, 10 mg/kg",4.1 µM·h
c1csc(CNc2cc[nH]n2)c1,"male CD-1 mouse, plasma","oral, 20 mg/kg, hydrochloride salt",24.4 µM·h
CN1CCC[C@H](CN2c3ccccc3Sc3ccccc32)C1.Cl,"ICR mouse female fasted, skin","oral, 16 mg/kg",5420 ng·h/mL
C[C@@H]1C[C@H]2[C@@H]3CCC4=CC(=O)C=C[C@]4(C)[C@@]3(F)[C@@H](O)C[C@]2(C)[C@@]1(O)C(=O)CO,"DBA/1J mouse, male, plasma","intravenous, 1 mg/kg",23.2 ± 5.14 ng·h/mL
Cc1cc(NC2Cc3cc(F)c(F)cc3C2)n2nc(C(C)(F)F)nc2n1,"NSG mouse, whole blood","oral, 10 mg/kg",124 µM·h
CCOC(=O)C1=C(CN2CCC[C@@H]2C(=O)Nc2ccc(B(O)O)cc2)NC(c2nccs2)=N[C@H]1c1ccc(F)cc1Br,"ICR mouse, plasma","oral, 10 mg/kg",352 ± 22.6 ng·h/mL
O=[N+]([O-])c1ccc(-c2ccc(O)cc2)c2cccnc12,"male ICR mouse, plasma","oral, 5 mg/kg",30.2 ng·h/mL
O=c1c2cc(Cl)c(CO)cc2[nH]c(=S)n1Cc1cccnc1,mouse,"oral, 50 mg/kg",140 ng·h/mL

# Excerpt of the above:
SMILES,system,setting,AUC(0-t)
O=[N+]([O-])c1ccc(-c2ccc(O)cc2)c2cccnc12,"male ICR mouse, plasma","oral, 5 mg/kg",30.2 ng·h/mL
